Experimental data collected from several papers.
Every numbered part comes from another study and shows a few of its results, in no order. Positions count from the first letter of the parent shown.

Series 1 — method: DHFR PCA, deep sequencing; medium: yeast; together with: (+)-ABA 4.8 µM; reference: wild-type fitted maximum; direction: higher = stronger binding
Target: ABI1, truncated, D143A, DHFR fusion (Arabidopsis thaliana)
Setting: methotrexate growth selection, single substitutions
Starting sequence: PYL1, truncated, DHFR fusion (Arabidopsis thaliana); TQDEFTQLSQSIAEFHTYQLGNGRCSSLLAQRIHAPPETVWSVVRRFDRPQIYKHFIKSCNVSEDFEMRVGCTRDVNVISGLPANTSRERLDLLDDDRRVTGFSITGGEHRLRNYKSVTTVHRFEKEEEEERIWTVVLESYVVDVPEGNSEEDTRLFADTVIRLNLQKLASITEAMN; partner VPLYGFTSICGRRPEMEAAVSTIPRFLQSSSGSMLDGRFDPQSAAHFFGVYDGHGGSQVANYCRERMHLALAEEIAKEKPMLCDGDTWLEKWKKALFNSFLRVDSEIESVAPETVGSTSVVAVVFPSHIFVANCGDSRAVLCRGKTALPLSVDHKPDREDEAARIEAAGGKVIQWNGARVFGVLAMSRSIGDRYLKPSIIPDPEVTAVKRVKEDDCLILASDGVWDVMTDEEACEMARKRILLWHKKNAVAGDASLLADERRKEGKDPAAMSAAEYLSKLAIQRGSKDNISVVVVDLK
Substitution | relative binding score
V76R | 3.56%
V118F | -0.552%
T73N | 38.2%
R32V | 76%
T1G | 71.4%
I12L | 28.5%
V161H | 0.815%
E14P | -12.2%
E109R | 27.1%
E128K | 77.8%
K58R | 69.3%
G21K | 72.1%

Series 2 — method: protein binding microarray; form: double-stranded DNA, one strand shown; medium: in vitro; tested at: not given; reference: not given; direction: higher = stronger binding
Target: Histone acetyltransferase KAT6A, winged helix 1, GST fusion (KAT6A, Homo sapiens, UniProt Q92794, residues 1-85)
Setting: 8-mer, flanks averaged, mean of 2 arrays, mostly near background
Construct (chain): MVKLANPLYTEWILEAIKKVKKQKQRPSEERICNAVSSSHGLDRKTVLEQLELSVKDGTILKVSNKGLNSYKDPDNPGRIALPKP
Oligonucleotide | E-score
AAAGATGG | -0.027
TGGTTCAA | -0.163
CCCTGAGC | 0.0302
TTCACAAA | -0.171
CTGATTGC | -0.104
CAGGGCTC | -0.168
CTAGGGGA | -0.215
ACGGGTTG | 0.332
ATCCGTGA | 0.269
ACGTGGAT | -0.134
AGACCTGC | -0.155
CGAGCAGC | 0.0138
CAGTTCAC | -0.0127
CACCCTTA | -0.179
ACCGCAAC | 0.111
CCCCAAAC | -0.0896
AGTGGCCG | 0.061
AAGTAAGC | -0.106
AGATGAGA | -0.235
AGGCATCG | -0.0761
ACATTAAA | -0.0908
CGTAAACC | 0.182
AGGATTCG | -0.145
AGTGGCGG | 0.219
AGGAAGGG | -0.145

Series 3 — method: RNA Bind-n-Seq; form: RNA; medium: in vitro; tested at: 365 nM; reference: no-protein control; direction: higher = stronger binding
Target: RNA binding protein fox-1 homolog 2, RRM domain, GST-SBP tag (RBFOX2, Homo sapiens, UniProt O43251-10, residues 100-194)
Setting: natural RNA segment, single round, ends assumed
Shared flanks, not repeated: GGGAGUUCUACAGUCCGACGAUC … UGGAAUUCUCGGGUGCCAA
Residues (chain): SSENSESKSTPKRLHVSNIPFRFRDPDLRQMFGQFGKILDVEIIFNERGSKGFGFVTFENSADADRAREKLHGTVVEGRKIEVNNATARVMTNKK
Oligonucleotide | RBNS enrichment (R)
CCGUGCAAGCAUUCCAUUCGGCAGGGAGGAUCAGUUCCUUAGCUCCCUGCCUUAACCUAGGACCAACCUGGGACCUGACCUGUGAGGACUCUGUGCUGACCUUAUUCUUG | 1.1
AUUUCAGGGAUCCUUAAUAUUUUGAUUUGUUUUCCGAGAUUGGAUUUUAUUUUAUCUGCUAUUUCAGUUCAUCUAAAUCUUGUGUUCUGUACAUGUGAUGUUUGACUGUA | 0.53
GCCAGGACGCAAGGGGAGCAAUGAAUGUCUGUGUCUGAUAUGCUCCUCCCAGGUUGGUGUCCCACUGGACAGGUCACAAUGCAGGCUGCCUGCUUUGCCUCCUCCUGUGU | 2.61
CCCUGCGAUUGUGCCACCCUGUGAUUGUAUAGCGUGUUGUUUGUUCCAGUAAGCAGGCAGGCCCAGAGACUGCUUUCUCAGCACCGCACAGAUCUCAGUGGGUCACAUAA | 0.637
AGUCAUAGAAAUCAGUCUCUCUGGUUUGUUUUGUAUUAUGUUGUACAUCAUUAAAGAUCUAAAUACAAAGGAUAUACAGUCUUGAAUCUAAAAUAAUUUGCUAACUAACU | 0.587
UGCAUUUUCUAAACAGAGAUGAGGUGGUAUCUUCACGUAGAACAUUGGUAUUCGCUUGAGAAAAAAAGAAUAGUUGAACCUAUUUCUCUUUCUUUACAAGAUGGGUCCAG | 0.294
CCGGGACUACCAUGGCCCCCAGGGCUGGCUUCCUCCUUCUGGGUUUCACAGGCUCCUCUGGCCCUGACCCCUCUUGCUCGUUCCCCUUCCUUCCGCAGCUCCUAGUCUCG | 0.406
UAGCUGGGGCAGGGGCAGAGGACAGCGGCUGUAGCUGUCACAUCUCUGCGACUCAUCCUGUACCGUGUGUUGGCCAGAAGCUGCAUCCUAAGCCCCCUCCCCAACAAGAU | 0.329

Series 4 — target: CCNA2, cyclin fold, Cln2 fusion (human); method: yeast growth competition, sequencing; medium: yeast; setting: strong parent motif; reference: not given; direction: higher = stronger binding
Starting sequence: RBL1 docking peptide (human); GSAKRRLFGEDPP; partner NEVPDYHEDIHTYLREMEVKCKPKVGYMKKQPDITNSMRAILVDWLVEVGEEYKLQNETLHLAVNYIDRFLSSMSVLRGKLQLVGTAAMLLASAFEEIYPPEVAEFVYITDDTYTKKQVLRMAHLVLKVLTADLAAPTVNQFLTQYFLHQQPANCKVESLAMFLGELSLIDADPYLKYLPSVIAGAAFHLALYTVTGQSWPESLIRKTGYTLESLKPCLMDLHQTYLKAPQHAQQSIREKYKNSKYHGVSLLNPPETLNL
Substitution | normalised enrichment score
GSAKRRLFGPDPP [E10P] | 6.16
GSAKRRLFGEDCP [P12C] | 5.48
GSAKRRLGGEDPP [F8G] | 0.227
GSAKFRLFGEDPP [R5F] | 0.235
GSAKRRLFGEDKP [P12K] | 5.77
GSAKRGLFGEDPP [R6G] | 0.764
GSAKARAFGEDPP [R5A L7A] | -0.684
GSAKRRLMGEDPP [F8M] | 0.174
GSAKRSLFGEDPP [R6S] | 3.86
GHAKRRLFGEDPP [S2H] | 6.44
GSAKRRLFGEKPP [D11K] | 6.22
GSAKRPLFGEDPP [R6P] | 0.482
GSALRRLFGEDPP [K4L] | 1.03
GVAKRRLFGEDPP [S2V] | 5.19
GSAKPRLFGEDPP [R5P] | -0.142
GSAKRRLFGNDPP [E10N] | 5.47
HSAKRRLFGEDPP [G1H] | 6.13
CSAKRRLFGEDPP [G1C] | 5.76
GSAKRRLFGEDPC [P13C] | 5.54
GSAKRRLFGEDPE [P13E] | 4.65

Some of these lines once more (series 4):
Substitution | normalised enrichment score
GSAKRRLFGPDPP [E10P] | 6.16
GSAKRRLFGEDCP [P12C] | 5.48
GSAKRRLGGEDPP [F8G] | 0.227
GSAKFRLFGEDPP [R5F] | 0.235
GSAKRRLFGEDKP [P12K] | 5.77
GSAKRGLFGEDPP [R6G] | 0.764
GSAKARAFGEDPP [R5A L7A] | -0.684
GSAKRRLMGEDPP [F8M] | 0.174
